Earlier results as cited in several papers.
Lines come from different studies, so protocols differ. Several values in a cell are separate wells, animals, samples, runs or records. Numbers after ± are the reported error. ≈ marks a conversion by molar mass, not a printed value.
Chain of UniProt Q9H4A3 (whole entry, looked up): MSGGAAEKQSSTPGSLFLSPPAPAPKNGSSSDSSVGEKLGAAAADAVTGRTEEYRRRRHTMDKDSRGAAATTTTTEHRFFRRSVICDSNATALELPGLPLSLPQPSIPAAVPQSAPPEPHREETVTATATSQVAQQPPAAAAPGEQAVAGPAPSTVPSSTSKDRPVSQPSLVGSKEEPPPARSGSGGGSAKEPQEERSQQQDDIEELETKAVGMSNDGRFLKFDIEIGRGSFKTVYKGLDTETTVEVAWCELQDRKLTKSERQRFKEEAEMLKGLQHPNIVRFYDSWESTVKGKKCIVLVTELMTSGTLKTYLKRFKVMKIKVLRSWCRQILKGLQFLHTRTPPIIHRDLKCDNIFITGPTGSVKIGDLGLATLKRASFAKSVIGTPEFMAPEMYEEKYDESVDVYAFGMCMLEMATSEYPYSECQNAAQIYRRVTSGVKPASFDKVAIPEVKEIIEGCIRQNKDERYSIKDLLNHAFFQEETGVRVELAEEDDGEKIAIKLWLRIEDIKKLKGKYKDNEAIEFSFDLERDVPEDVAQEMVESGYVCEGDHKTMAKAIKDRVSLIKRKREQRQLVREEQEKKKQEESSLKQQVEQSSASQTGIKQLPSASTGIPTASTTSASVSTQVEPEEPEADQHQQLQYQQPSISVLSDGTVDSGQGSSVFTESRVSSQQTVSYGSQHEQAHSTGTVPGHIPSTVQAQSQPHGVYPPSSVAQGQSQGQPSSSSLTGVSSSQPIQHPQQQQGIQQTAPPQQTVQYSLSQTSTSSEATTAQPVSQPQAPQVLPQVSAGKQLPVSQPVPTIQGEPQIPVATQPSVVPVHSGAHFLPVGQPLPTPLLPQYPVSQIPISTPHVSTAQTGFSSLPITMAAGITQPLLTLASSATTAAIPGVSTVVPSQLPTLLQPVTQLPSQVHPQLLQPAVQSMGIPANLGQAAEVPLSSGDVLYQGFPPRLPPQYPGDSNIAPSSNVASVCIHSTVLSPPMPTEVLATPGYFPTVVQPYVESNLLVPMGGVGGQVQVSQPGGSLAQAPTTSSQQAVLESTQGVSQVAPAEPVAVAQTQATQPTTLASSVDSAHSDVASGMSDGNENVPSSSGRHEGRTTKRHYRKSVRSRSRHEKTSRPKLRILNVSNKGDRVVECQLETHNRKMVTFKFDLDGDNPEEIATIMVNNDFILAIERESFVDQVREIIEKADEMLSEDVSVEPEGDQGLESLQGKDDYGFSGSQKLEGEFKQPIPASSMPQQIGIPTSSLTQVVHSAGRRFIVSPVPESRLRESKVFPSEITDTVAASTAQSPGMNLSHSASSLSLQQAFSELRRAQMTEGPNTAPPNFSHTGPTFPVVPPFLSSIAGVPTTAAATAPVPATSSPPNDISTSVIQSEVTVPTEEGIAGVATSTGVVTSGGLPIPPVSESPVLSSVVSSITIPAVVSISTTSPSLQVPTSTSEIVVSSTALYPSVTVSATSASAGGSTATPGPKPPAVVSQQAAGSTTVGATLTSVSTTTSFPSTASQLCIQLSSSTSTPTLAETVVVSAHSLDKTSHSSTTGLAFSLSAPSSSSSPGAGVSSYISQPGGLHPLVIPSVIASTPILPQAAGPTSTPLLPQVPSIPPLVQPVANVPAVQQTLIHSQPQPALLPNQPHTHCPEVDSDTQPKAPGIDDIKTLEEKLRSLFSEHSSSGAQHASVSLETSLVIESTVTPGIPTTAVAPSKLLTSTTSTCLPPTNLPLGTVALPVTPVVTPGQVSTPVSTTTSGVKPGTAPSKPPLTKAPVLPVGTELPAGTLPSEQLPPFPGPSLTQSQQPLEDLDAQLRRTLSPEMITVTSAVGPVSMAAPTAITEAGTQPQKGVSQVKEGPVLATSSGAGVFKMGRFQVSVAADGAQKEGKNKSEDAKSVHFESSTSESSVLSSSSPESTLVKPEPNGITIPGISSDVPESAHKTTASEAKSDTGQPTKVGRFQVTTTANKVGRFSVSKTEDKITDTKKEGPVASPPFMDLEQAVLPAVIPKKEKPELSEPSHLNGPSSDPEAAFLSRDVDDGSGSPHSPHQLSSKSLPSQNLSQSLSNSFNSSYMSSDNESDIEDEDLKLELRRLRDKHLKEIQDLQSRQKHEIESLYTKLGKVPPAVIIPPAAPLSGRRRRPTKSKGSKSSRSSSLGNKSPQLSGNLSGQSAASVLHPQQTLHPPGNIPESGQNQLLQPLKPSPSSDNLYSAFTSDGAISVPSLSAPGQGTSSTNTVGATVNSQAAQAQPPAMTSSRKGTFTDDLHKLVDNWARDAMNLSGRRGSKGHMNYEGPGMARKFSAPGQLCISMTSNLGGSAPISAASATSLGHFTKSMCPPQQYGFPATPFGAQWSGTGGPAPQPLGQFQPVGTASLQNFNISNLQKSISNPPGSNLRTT

Compound	tested on	assay	system	setting	how to read	endpoint	result
Nc1cc(C(F)(F)F)c(-c2nc(N3CCOCC3)nc(N3CCOCC3)n2)cn1	WNK1 (Homo sapiens, UniProt Q9H4A3)	enzyme activity	–	10 µM	relative to: untreated	remaining activity	100%
CCCCCC(CCC)C(=O)O (stereo not drawn)	mouse 3T3 fibroblasts	cell viability	–	unbound medium concentration	–	IC10	452 µM
O=C(O)CSc1nnc(Br)n1-c1ccc(C2CC2)c2ccccc12	HepG2	mitochondrial membrane potential	–	concentration not given, Tox21	–	activity outcome	inactive
CCCC(C)C(=O)O (stereo not drawn)	mouse 3T3 fibroblasts	cell viability	–	unbound medium concentration	–	IC10	1760 µM
O=C1Oc2ccc3ccccc3c2C1c1c[nH]c2ccccc12 (stereo not drawn)	COLO 205	cell viability	–	–	–	IC50	> 100 µM
CCN1CCN(C(=O)c2ccc(-n3nc(-c4cccnc4)c4c3-c3sc(NC(C)=O)nc3CC4)cc2)CC1	Caco-2	–	–	–	–	efflux ratio	158
N=C(CC(O)c1cc2c(F)cc(F)cc2c2cc(C(F)(F)F)ccc12)Nc1ccc(F)cc1 (stereo not drawn)	HepG2	–	–	–	–	CC50	20.7 ± 2.2 µM
Cc1nc(-c2nnc3n2CCN(C(=O)c2ccc(-c4cccs4)cc2)[C@@H]3C)cs1	Caco-2	–	–	0.1% BSA	–	Papp B to A	52.9 ×10⁻⁶ cm/s
COc1cccc2c1C(=O)c1c(O)c3c(c(O)c1C2=O)C[C@@](O)(C(=O)CO)C[C@@H]3O[C@H]1C[C@H](N)[C@H](O)[C@H](C)O1	COLO 205	cytotoxicity	–	–	–	IC50	0.81 µM and 0.84 µM and 0.89 µM
CC1(C)S[C@@H]2[C@H](NC(=O)[C@H](N)c3ccccc3)C(=O)N2[C@H]1C(=O)O	Escherichia coli	–	clinical isolate RKI-No_462/16	–	–	MIC	> 16 µg/mL
COc1ccc(CNc2nc(-c3ccc(C(=O)O)cc3)nc3sc4ccccc4c23)cc1Cl	Caco-2	–	–	–	–	efflux ratio	0.6 to 1.6
Cc1cccc(C)c1OCC(=O)N[C@@H](Cc1ccccc1)[C@@H](O)C[C@H](Cc1ccccc1)NC(=O)[C@H](C(C)C)N1CCCNC1=O	HepG2	mitochondrial membrane potential	–	concentration not given, Tox21	–	mitochondrial toxicity	active
O=C(O[C@@H]1COC(=O)c2cc(O)c(O)c(O)c2-c2c(cc(O)c(O)c2O)C(=O)O[C@H]1[C@@H]1OC(=O)c2cc(O)c(O)c(O)c2-c2c(O)c(O)c(O)c3c2C(=O)O[C@H]1[C@@H]3O)c1cc(O)c(O)c(O)c1	Chang liver cells	cytotoxicity	–	–	–	IC50	> 37.5 µg/mL
Cc1nc2n(c(=O)c1CCN1CCC(c3noc4cc(F)ccc34)CC1)CCCC2O (stereo not drawn)	HepG2	mitochondrial membrane potential	–	concentration not given, Tox21	–	activity outcome	inactive
CCNC(=O)c1cc2c(-c3cc(C(C)(C)O)ccc3Oc3c(C)cc(F)cc3C)cn(C)c(=O)c2[nH]1	megakaryocyte colony-forming units	colony formation	–	–	–	EC50	0.645 µM
C/C(=N\CCO)c1c(O)c2ccccc2oc1=O	HL-60	–	–	–	–	cytotoxicity	590 µM
CCC(CC)COC(=O)[C@H](C)N[P@](=O)(OC[C@H]1O[C@@](C#N)(c2ccc3c(N)ncnn23)[C@H](O)[C@@H]1O)Oc1ccccc1	Huh-7	cytotoxicity	–	–	–	CC50	1.4 ± 0.5 µM
N#C/C=C/c1ccc2c(S(=O)(=O)n3nc(Nc4ccc(C#N)c(Cl)c4)nc3N)cccc2c1	mouse neurons	–	–	–	–	TC50	> 100 µM

Compound	tested on	assay	system	setting	how to read	endpoint	result
Nc1ccccc1NC(=O)c1ccc(CNC(=O)OCc2cccnc2)cc1	CAL-27	cell viability, MTT	–	72 h	–	IC50	2.96 ± 0.17 µM
O=C(O)c1[nH]c2ccccc2c1C1NCCc2ccccc21 (stereo not drawn)	COLO 320 ABCB1-resistant colon	cytotoxicity	–	–	–	IC50	53.6 µM
CCCCCCCC1(OC)OC(=O)c2cc(OC)cc(OC)c21 (stereo not drawn)	B16-F10	cytotoxicity	–	–	–	IC50	95.8 µg/mL
COc1ccccc1OCC(O)CN1CCN(CC(=O)Nc2c(C)cccc2C)CC1 (stereo not drawn)	HepG2	mitochondrial membrane potential	–	concentration not given, Tox21	–	activity outcome	inactive
CN(C)c1ccc(C(=O)N(CC(=O)NCc2ccccc2)Cc2ccc(C(=O)Nc3ccccc3N)cc2)cc1	CAL-27	cell viability, MTT	–	72 h	–	IC50	2 ± 0.15 µM
[Cl-].[Cl-].[Mo+4].c1cc[cH-]c1.c1cc[cH-]c1	CAKI-1	cytotoxicity	–	48 h	–	IC50	> 290 µM
COc1cc(-c2oc3ccc(CCOC(C)=O)cc3c2C=O)ccc1O	tumour cell lines	cytotoxicity	–	–	–	IC50	5 to 18 µM
NC1=NCC2c3ccccc3Cc3ccccc3N12 (stereo not drawn)	HepG2	–	–	concentration not given	–	mitochondrial membrane potential	inactive
CNC(C)C1CCC(N)C(OC2C(N)CC(N)C(OC3OCC(C)(O)C(NC)C3O)C2O)O1 (stereo not drawn)	Escherichia coli	–	clinical isolate RKI-No_317/16	–	–	MIC	2 µg/mL (≈ 4.19 µM)
COc1c(N2CCNC(C)C2)c(F)cc2c(=O)c(C(=O)O)cn(C3CC3)c12 (stereo not drawn)	HepG2	mitochondrial membrane potential	–	concentration not given, Tox21	–	activity outcome	inactive
CC(=O)O[C@H]1C(=O)[C@@]2(C)[C@H]([C@H](OC(=O)c3ccccc3)[C@]3(O)C[C@H](OC(=O)[C@H](O)[C@@H](NC(=O)c4ccccc4)c4ccccc4)C(C)=C1C3(C)C)[C@]1(OC(C)=O)CO[C@@H]1C[C@@H]2O	HCT-116	cytotoxicity	–	–	–	IC50	0.00327 µM
CC[C@H]1OC(=O)[C@H](C)[C@@H](O[C@H]2C[C@@](C)(OC)[C@@H](O)[C@H](C)O2)[C@H](C)[C@@H](O[C@@H]2O[C@H](C)C[C@H](N(C)C)[C@H]2O)[C@](C)(O)C[C@@H](C)C(=O)[C@H](C)[C@@H](O)[C@]1(C)O	HepG2	mitochondrial membrane potential	–	concentration not given, Tox21	–	activity outcome	inactive
O=C(c1nc(-c2c[nH]c3cc(Br)ccc23)c[nH]1)c1c[nH]c2cc(O)ccc12	NSCLC-N6	cytotoxicity	–	–	–	IC50	12 µg/mL
COc1cc2nc(N(C)CCCNC(=O)C3CCCO3)nc(N)c2cc1OC (stereo not drawn)	HepG2	mitochondrial membrane potential	–	concentration not given, Tox21	–	activity outcome	inactive
C=CCC(CCC)C(=O)O (stereo not drawn)	mouse 3T3 fibroblasts	cell viability	–	unbound medium concentration	–	IC10	229 µM
CCC(C)n1ncn(-c2ccc(N3CCN(c4ccc(OCC5COC(Cn6cncn6)(c6ccc(Cl)cc6Cl)O5)cc4)CC3)cc2)c1=O (stereo not drawn)	MDCK	–	–	–	–	apparent permeability	57.1 ×10⁻⁶ cm/s
CN(C)C/C=C/C(=O)Nc1cc2c(Nc3ccc(F)c(Cl)c3)ncnc2cc1O[C@H]1CCOC1	Caco-2	–	–	3 µM	–	Papp B to A	8.69 ± 0.83 ×10⁻⁶ cm/s
[N-]=[N+]=N[C@]1(CO)O[C@@H](n2ccc(N)nc2=O)[C@@H](F)[C@@H]1O	PBMC	–	–	–	–	CC50	3.03 µM

Excerpt of the above:
Compound	tested on	assay	system	setting	how to read	endpoint	result
CCCCCC(CCC)C(=O)O (stereo not drawn)	mouse 3T3 fibroblasts	cell viability	–	unbound medium concentration	–	IC10	452 µM
O=C(O)CSc1nnc(Br)n1-c1ccc(C2CC2)c2ccccc12	HepG2	mitochondrial membrane potential	–	concentration not given, Tox21	–	activity outcome	inactive
CCCC(C)C(=O)O (stereo not drawn)	mouse 3T3 fibroblasts	cell viability	–	unbound medium concentration	–	IC10	1760 µM
O=C1Oc2ccc3ccccc3c2C1c1c[nH]c2ccccc12 (stereo not drawn)	COLO 205	cell viability	–	–	–	IC50	> 100 µM
CCN1CCN(C(=O)c2ccc(-n3nc(-c4cccnc4)c4c3-c3sc(NC(C)=O)nc3CC4)cc2)CC1	Caco-2	–	–	–	–	efflux ratio	158
